Published values pooled from the literature.
Parts stem from different laboratories: compare values within a part only. Substitutions count along the parent as printed.
Sequence of UniProt P28335 (whole entry, looked up): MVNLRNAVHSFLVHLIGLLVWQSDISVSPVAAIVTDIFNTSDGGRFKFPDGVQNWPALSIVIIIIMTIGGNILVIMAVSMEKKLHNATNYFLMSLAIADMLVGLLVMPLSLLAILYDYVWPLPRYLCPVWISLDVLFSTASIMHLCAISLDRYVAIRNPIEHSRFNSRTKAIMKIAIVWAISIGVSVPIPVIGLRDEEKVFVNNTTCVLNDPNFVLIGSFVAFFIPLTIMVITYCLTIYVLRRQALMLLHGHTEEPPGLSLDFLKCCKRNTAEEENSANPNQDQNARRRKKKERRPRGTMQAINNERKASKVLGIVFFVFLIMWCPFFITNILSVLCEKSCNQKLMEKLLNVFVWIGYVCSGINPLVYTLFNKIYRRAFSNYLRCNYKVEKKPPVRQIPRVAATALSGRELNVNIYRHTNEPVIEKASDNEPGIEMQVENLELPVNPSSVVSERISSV

Set 1 — technique: aptamer microarray, sandwich; molecule type: DNA with 2'F-ANA; medium: in vitro; tested at: 200 nM; added: Cy3 exosite-II aptamer, 400 nM; direction: higher = stronger binding; oligonucleotide: GGTTGGTGTGGTTGG
Target: Prothrombin, mature alpha-thrombin (F2, Homo sapiens, UniProt P00734)
Notes: whole 15-mer aptamer, many near background
Modification | mean fluorescence intensity [a.u.]
2'F-ANA at 2 3 5 7 13 | 76.1
2'F-ANA at 1 2 4 5 6 7 13 15 | 62.5
2'F-ANA at 1 2 3 4 6 8 9 10 12 13 14 15 | 56.8
2'F-ANA at 2 4 6 7 9 10 12 14 15 | 65.7
2'F-ANA at 1 2 3 6 8 12 15 | 427
2'F-ANA at 2 3 5 6 8 11 13 15 | 92
2'F-ANA at 1 3 4 8 13 14 15 | 80.1
2'F-ANA at 3 6 7 10 11 12 14 15 | 328

Set 2 — target: vanadate, free oxyanion; technique: microfluidic competitive inhibition; medium: in vitro, cell-free expressed; tested at: not given; direction: lower = stronger binding
Notes: derived from inhibition constants, unchanged parent 676 nM
Parent: PafA, mature enzyme, eGFP fusion (Elizabethkingia meningoseptica, UniProt Q9KJX5); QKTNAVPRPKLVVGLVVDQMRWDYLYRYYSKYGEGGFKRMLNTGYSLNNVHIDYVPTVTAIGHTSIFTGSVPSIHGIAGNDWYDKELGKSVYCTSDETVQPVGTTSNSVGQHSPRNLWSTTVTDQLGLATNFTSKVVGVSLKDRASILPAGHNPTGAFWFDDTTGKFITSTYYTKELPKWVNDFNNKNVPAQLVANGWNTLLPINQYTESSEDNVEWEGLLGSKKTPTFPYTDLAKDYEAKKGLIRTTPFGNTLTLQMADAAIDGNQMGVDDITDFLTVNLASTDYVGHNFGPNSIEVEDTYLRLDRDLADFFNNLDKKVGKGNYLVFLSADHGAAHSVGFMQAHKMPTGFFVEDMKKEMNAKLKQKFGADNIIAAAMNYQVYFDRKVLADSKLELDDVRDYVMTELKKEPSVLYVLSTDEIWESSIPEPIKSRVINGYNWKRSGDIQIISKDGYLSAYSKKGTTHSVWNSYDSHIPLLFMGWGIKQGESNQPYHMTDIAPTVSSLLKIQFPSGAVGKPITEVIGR
Substitution | oxyanion analog dissociation constant
A129V | 547 nM
S295G | 966 nM
D213V | 1.93 µM

Further values, each from its own experiment
Molecule | target or system | assay | system | conditions | measurement | result
PDIA4 (Homo sapiens, UniProt P13667) | LRP2 (Homo sapiens, UniProt P98164) | cross-linking MS | cell fractions | added: DSSO | cross-linked residues | K163 to S546
CN(C)C(=O)c1sc2nc(N3CCC(S(C)(=O)=O)CC3)cc(C(F)(F)F)c2c1N | HTR2C (Homo sapiens, UniProt P28335) | ligand displacement |  | 10 µM | inhibition | 11.6%
SF3A3 (Homo sapiens, UniProt Q12874) | SF3B3 (Homo sapiens, UniProt Q15393) | cross-linking MS |  | hits only | interaction screen | cross-linked
RRM2 (Homo sapiens, UniProt P31350) | HSPA9 (Homo sapiens, UniProt P38646) | cross-linking MS | cell fractions | added: DSSO | cross-linked residues | K283 to K300
COX4I1 (Homo sapiens, UniProt P13073) | SDHA (Homo sapiens, UniProt P31040) | cross-linking MS | cell fractions | added: DSSO | cross-linked residues | K60 to K167

Repeated from above (set 2):
Substitution | oxyanion analog dissociation constant
S295G | 966 nM
D213V | 1.93 µM
